Measurements pooled from the literature.
Each line is one published result; not all experiments were run side by side. ± gives the spread as reported.
PRMT5: Protein arginine N-methyltransferase 5 (PRMT5, Homo sapiens, UniProt O14744)
Sequence of UniProt O14744 (whole entry, looked up): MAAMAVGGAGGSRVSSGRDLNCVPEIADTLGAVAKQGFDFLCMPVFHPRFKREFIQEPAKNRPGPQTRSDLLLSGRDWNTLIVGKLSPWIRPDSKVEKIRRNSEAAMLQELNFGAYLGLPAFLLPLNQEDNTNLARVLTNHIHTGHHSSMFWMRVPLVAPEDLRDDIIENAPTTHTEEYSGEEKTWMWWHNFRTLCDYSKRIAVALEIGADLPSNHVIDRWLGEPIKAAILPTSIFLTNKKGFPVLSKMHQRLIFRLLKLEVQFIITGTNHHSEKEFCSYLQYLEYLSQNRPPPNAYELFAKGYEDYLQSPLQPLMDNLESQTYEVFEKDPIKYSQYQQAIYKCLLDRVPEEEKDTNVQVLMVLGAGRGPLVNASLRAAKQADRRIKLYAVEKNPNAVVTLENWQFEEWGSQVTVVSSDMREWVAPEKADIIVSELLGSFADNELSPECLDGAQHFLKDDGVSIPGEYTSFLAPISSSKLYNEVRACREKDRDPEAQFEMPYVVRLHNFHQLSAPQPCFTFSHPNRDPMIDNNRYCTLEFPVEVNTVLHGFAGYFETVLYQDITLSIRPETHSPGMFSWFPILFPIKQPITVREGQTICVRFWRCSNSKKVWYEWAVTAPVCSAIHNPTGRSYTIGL
Sequence of UniProt Q8NER1 (whole entry, looked up): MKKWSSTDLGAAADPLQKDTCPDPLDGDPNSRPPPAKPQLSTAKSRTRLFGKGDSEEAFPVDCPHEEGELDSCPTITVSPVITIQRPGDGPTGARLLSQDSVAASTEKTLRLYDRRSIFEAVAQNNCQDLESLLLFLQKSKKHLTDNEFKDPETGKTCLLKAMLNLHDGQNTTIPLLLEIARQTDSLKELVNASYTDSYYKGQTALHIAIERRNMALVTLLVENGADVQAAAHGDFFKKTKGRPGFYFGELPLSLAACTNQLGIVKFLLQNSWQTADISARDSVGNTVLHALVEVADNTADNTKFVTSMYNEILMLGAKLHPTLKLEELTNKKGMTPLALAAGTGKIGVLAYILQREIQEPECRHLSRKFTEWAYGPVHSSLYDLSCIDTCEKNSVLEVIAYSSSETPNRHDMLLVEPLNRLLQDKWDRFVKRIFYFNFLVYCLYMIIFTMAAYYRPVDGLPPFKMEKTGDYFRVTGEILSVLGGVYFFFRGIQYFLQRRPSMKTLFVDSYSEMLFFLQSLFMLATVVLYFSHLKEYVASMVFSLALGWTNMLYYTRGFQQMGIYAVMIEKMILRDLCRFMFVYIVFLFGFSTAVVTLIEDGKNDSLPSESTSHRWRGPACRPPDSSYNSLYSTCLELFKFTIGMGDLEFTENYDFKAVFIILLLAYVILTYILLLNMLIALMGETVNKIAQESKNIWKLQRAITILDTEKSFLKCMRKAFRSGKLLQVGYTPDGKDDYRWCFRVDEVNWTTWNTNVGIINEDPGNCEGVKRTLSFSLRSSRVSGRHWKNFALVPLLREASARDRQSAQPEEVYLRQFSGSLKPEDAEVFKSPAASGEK
Sequence of UniProt Q9UBL9 (whole entry, unmodified, looked up): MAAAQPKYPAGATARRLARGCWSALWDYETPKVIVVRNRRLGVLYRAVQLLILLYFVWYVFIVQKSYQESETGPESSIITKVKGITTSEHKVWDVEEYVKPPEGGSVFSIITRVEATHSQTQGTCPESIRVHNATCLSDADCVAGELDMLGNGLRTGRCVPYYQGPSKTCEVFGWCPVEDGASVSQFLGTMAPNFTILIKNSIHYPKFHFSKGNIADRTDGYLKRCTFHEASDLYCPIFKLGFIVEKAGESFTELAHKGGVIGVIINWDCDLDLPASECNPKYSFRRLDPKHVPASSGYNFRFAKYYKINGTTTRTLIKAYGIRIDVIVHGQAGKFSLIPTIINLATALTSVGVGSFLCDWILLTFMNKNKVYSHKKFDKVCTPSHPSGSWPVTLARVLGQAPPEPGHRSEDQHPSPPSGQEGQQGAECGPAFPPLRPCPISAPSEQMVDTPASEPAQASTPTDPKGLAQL
Sequence of UniProt Q704Y3 (whole entry, looked up): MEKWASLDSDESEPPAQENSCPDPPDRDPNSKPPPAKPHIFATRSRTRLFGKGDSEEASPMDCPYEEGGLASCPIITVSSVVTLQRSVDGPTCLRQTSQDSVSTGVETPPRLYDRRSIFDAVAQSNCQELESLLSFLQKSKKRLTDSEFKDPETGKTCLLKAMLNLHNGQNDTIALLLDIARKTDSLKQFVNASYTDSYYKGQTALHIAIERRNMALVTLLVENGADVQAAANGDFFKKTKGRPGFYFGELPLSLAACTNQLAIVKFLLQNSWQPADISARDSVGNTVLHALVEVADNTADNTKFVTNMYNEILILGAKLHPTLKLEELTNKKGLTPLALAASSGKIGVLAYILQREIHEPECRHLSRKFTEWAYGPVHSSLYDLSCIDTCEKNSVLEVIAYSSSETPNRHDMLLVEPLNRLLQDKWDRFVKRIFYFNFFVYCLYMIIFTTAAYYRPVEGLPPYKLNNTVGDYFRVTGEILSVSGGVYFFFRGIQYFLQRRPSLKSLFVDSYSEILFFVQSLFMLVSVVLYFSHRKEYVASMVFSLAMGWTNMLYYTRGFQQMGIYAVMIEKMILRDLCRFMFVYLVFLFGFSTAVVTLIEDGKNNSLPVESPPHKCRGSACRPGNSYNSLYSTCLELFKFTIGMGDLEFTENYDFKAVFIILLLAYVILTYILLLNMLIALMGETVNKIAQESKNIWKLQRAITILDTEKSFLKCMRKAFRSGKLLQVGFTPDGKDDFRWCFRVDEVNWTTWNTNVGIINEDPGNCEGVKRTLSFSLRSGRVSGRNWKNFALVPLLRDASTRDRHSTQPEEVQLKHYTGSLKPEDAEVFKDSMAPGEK
Sequence of UniProt P41595 (whole entry, looked up): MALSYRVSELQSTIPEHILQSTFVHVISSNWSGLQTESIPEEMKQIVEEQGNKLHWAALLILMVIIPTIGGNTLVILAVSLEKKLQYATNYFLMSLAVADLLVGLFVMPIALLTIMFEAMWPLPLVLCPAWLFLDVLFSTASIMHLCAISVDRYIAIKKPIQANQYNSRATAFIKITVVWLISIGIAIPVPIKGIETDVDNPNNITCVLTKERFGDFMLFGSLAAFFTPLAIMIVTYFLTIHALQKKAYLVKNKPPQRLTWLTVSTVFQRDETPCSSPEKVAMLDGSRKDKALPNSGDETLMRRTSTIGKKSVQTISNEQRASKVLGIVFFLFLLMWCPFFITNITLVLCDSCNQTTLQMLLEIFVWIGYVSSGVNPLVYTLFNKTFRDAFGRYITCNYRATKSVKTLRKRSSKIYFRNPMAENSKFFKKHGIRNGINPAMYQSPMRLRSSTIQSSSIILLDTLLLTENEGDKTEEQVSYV
Sequence of UniProt Q12791 (whole entry, looked up): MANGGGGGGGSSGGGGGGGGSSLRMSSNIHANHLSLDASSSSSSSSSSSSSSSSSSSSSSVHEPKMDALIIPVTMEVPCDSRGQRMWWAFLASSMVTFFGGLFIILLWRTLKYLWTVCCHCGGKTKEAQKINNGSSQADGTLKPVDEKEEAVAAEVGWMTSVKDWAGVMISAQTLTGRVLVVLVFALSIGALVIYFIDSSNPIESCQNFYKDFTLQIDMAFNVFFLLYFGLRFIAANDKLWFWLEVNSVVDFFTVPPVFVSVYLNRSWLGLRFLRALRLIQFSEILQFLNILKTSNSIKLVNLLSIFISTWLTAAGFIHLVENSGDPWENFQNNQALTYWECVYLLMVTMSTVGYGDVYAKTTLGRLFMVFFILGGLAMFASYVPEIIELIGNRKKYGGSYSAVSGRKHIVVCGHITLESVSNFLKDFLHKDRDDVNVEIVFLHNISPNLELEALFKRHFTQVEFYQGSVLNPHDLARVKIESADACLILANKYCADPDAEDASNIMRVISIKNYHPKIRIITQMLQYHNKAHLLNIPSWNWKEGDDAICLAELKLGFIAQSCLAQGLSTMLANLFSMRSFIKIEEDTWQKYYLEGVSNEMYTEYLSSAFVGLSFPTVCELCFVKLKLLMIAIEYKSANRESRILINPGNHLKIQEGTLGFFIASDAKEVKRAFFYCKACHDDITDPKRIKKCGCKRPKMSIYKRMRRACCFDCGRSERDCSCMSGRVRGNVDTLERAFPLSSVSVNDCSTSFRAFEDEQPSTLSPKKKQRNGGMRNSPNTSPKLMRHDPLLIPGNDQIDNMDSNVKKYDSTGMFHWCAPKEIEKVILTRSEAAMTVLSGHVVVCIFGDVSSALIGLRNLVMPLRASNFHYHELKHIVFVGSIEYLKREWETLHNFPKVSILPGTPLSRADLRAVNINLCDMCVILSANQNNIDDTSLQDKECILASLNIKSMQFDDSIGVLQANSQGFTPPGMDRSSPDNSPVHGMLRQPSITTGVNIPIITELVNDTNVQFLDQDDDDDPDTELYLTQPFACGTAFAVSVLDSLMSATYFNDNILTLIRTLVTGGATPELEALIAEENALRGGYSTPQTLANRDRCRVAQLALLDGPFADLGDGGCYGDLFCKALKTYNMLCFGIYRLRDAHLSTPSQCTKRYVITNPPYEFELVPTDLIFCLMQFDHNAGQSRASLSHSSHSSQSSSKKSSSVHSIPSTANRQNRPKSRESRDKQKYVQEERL

| Compound | target or system | assay | system | conditions | how to read | endpoint | result |
| --- | --- | --- | --- | --- | --- | --- | --- |
| CC(C)C[C@H](NC(=O)C[C@H](O)[C@H](CC(C)C)NC(=O)[C@H](Cc1c[nH]cn1)NC(=O)CNC(=O)[C@@H](NC(=O)[C@H](C)NC(=O)[C@H](Cc1c[nH]c2ccccc12)NC(=O)[C@H](CCC(N)=O)NC(=O)[C@@H](Cc1ccccc1)NC(=O)COCCOCCNC(=O)CCC(C(=O)O)N1CCN(CC(=O)O)CCN(CC(=O)O)CCN(CC(=O)O)CC1)C(C)C)C(N)=O (stereo partly drawn) [lutetium-177 labelled] | – | – | BALB/c nu/nu mice, kidneys | intravenous, 250 pmol, 1 h, together with: PA 300 µg | – | tissue uptake | 5.2 ± 0.7 %ID/g |
| O=C(O)c1ccc(Nc2ncc3c(n2)-c2ccc(Cl)cc2C(c2c(F)cccc2F)=NC3)cc1 | CaMKIV(h) | kinase activity | – | 1 µM | – | remaining activity | 104% |
| CN(C)C(=O)C(CCN1CCC(O)(c2ccc(Cl)cc2)CC1)(c1ccccc1)c1ccccc1 | Calcium-activated potassium channel subunit alpha-1, with LRRC26 γ1 subunit (KCNMA1, Homo sapiens, UniProt Q12791) | BK channel conductance, inside-out patch clamp | – | BKα/γ1, Vm -30 mV, nominally Ca2+-free | – | Hill coefficient | 1.48 ± 1.5 |
| CCCCCCCC/C=C\CCCCCCCC(=O)NCCc1ccc(O)c(O)c1 | Transient receptor potential cation channel subfamily V member 1 (Trpv1, Mus musculus, UniProt Q704Y3) | ion current, agonist, whole-cell patch clamp | HEK293 | – | – | Hill coefficient | 2.67 ± 0.26 |
| Cn1cc(-c2ccc(-c3cncc(Cl)c3N3CCC4(CCNC4=O)CC3)cc2)cn1 | COLO 205 | gene expression, microarray, refers to: SQLE mRNA | – | concentration not given, 2 h | reference: untreated cells | log2 fold change | -2.03 |
| CCCCN1/C(=C/C=C/c2sc3ccc(Br)cc3[n+]2CCCC)Sc2ccc(Br)cc21.[I-] | PRMT5 | inhibitor, scintillation proximity | – | together with: biotinylated histone H4 peptide substrate | – | Hill coefficient | 1.88 |
| CCN1/C(=C/C(C)=O)Sc2ccc(F)cc21 | – | – | cynomolgus monkey | oral, 30 mg/kg, 0.5 h post-dose | reference: pre-dose | PR interval change | 100 ± 2.1% |
| Nc1nc2c(ncn2[C@@H]2O[C@@H]3COP(=O)(O)O[C@H]3[C@H]2O)c(=O)[nH]1 | Cone cGMP-gated channel (Morone saxatilis, UniProt Q3I0N1+Q3I0N2) | channel current, agonist, suction electrode | cone outer segments | single cone shown, together with: 0.2 µM Ca2+ | – | Hill coefficient | 2.1 |
| COc1cc(CNC(=O)CCCC/C=C/C(C)C)ccc1O | Transient receptor potential cation channel subfamily V member 1 (TRPV1, Homo sapiens, UniProt Q8NER1) | ion current, agonist, outside-out patch clamp | HEK293 expressing hTRPV1 | – | – | Hill coefficient | 1.1 |
| N#Cc1ccc2[nH]cc(CCCCN3CCN(c4ccc5oc(C(N)=O)cc5c4)CC3)c2c1 | Sodium-dependent serotonin transporter (SLC6A4, Homo sapiens, UniProt P31645) | serotonin uptake, inhibitor | COS-7 expressing SLC6A4 | 60 min preincubation, together with: [3H]5-HT | – | Hill coefficient | 1.66 ± 0.24 |
| Nc1ncnc2c1ncn2[C@@H]1O[C@H](COP(=O)(O)OP(=O)(O)OP(=O)(O)O)[C@@H](O)[C@H]1O | P2X purinoceptor 2 (P2RX2, Homo sapiens, UniProt Q9UBL9, R130A) | channel activation, agonist | transfected HEK293 cells | physiological divalent cations, together with: 2 mM Ca2+ and 0.5 mM Mg2+ | – | Hill coefficient | 1.6 ± 0.1 |
| CCCCCCCCCCCCCCCCCCOCC(O)CO (stereo not drawn) | human iPSC-derived cardiomyocytes | MyBP-C/MYH ratio, plate-normalised SD score | – | concentration not given, primary screen | direction not given | activity score | 3.3 |
| CCCC[C@H](NC(=O)[C@H](C)c1c(C)[nH]c2ccc(O)cc12)c1ncc(-c2cc3ccccc3nc2OC)[nH]1 | 5-hydroxytryptamine receptor 2B (HTR2B, Homo sapiens, UniProt P41595) | – | – | – | – | Hill coefficient | 0.6 |
| C(/C=C/c1sc2c3ccccc3ccc2[n+]1CCCc1ccccc1)=C1/Sc2c(ccc3ccccc23)N1CCCc1ccccc1.[I-] | PRMT5 | inhibitor, scintillation proximity | – | together with: biotinylated histone H4 peptide substrate | – | Hill coefficient | 1.1 |
| Nc1c(N=Nc2ccc(S(=O)(=O)CCOS(=O)(=O)[O-])cc2)c(S(=O)(=O)[O-])cc2cc(S(=O)(=O)[O-])c(N=Nc3ccc(S(=O)(=O)CCOS(=O)(=O)[O-])cc3)c(O)c12.[Na+].[Na+].[Na+].[Na+] | alternative ancestral DyP peroxidase | peroxidase activity, substrate | – | – | – | Hill coefficient | 2 |

A few entries again:
| Compound | target or system | assay | system | conditions | how to read | endpoint | result |
| --- | --- | --- | --- | --- | --- | --- | --- |
| O=C(O)c1ccc(Nc2ncc3c(n2)-c2ccc(Cl)cc2C(c2c(F)cccc2F)=NC3)cc1 | CaMKIV(h) | kinase activity | – | 1 µM | – | remaining activity | 104% |
| CN(C)C(=O)C(CCN1CCC(O)(c2ccc(Cl)cc2)CC1)(c1ccccc1)c1ccccc1 | Calcium-activated potassium channel subunit alpha-1, with LRRC26 γ1 subunit (KCNMA1, Homo sapiens, UniProt Q12791) | BK channel conductance, inside-out patch clamp | – | BKα/γ1, Vm -30 mV, nominally Ca2+-free | – | Hill coefficient | 1.48 ± 1.5 |
